Measured values from different studies.
Numbered parts are unrelated; each lists some results of a single study. Substitutions count along the parent as printed.

Sample 1
Target: ABI1, truncated, D143A, DHFR fusion (Arabidopsis thaliana)
Technique: DHFR PCA, deep sequencing
Sample: yeast
Setting: methotrexate growth selection, single substitutions
With: (+)-ABA 0 µM
Relative to: wild-type fitted maximum
Reading: higher = stronger binding
Quantity: relative binding score
Parent: PYL1, truncated, DHFR fusion (Arabidopsis thaliana); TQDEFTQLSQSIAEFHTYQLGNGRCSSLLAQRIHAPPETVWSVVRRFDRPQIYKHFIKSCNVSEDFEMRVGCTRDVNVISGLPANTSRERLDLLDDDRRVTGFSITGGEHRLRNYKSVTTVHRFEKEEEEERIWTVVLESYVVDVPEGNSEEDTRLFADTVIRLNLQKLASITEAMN; partner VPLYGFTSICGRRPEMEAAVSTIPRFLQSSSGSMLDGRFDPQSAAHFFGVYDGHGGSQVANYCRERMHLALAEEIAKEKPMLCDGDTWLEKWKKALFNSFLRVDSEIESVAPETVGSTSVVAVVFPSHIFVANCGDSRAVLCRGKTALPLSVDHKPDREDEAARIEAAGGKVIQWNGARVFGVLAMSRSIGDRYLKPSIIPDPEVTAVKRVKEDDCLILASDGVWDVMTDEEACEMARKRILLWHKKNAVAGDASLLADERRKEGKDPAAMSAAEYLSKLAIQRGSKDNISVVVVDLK
I133H: 20.8%
Q19A: 29.9%
L29D: 3.19%
S27V: -0.574%
L169G: -3.41%
N77I: 41.3%
N61E: 46.6%
E125T: 30.3%
K116W: 0.225%
F157D: 10.1%
N22L: 17.1%
T101S: 0.0402%
A170L: -13.3%

Sample 2
Target: Sal-like protein 4, full length isoform A (SALL4, Homo sapiens, UniProt Q9UJQ4, residues 1-1053)
Chain of UniProt Q9UJQ4 (whole entry, looked up): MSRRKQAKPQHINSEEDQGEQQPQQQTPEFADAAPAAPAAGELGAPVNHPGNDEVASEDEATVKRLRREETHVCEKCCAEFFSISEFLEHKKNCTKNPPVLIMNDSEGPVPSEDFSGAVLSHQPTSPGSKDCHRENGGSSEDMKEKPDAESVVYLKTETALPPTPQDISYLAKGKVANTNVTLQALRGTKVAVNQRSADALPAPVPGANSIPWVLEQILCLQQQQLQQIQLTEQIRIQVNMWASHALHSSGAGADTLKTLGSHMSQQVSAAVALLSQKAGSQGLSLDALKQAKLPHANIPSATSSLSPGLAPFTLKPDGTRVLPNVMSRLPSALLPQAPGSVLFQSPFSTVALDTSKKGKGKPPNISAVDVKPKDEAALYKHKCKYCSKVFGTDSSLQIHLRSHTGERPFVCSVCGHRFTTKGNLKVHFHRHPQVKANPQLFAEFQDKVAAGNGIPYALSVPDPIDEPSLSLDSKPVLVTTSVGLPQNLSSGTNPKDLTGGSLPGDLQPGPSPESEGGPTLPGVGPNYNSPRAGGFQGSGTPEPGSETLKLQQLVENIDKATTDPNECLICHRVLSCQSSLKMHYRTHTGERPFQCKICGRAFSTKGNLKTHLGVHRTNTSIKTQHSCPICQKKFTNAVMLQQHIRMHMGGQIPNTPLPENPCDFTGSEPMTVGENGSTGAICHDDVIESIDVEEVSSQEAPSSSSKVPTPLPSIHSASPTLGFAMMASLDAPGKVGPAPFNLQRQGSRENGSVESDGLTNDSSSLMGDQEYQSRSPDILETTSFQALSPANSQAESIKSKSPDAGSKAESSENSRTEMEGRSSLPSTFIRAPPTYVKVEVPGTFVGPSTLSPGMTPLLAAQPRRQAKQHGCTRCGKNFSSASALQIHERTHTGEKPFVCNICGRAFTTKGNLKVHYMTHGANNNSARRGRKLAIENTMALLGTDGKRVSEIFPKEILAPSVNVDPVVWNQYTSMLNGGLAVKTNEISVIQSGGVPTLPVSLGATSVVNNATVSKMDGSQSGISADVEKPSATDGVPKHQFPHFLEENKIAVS
Technique: universal PBM
Form: double-stranded DNA, one strand shown
Sample: in vitro
Tested at: 600 nM
Setting: 8-mer, flanks averaged, mean of replicates
Reading: higher = stronger binding
Quantity: E-score
AGGTTAAA: 0.215
GTTTCCAA: 0.0755
CAATCGAG: -0.246
CTCGACAC: -0.141
CGGGGCGC: -0.433
ATGCATGG: 0.116
ATCTCGCC: -0.298
CGTCTCAG: -0.146
GATGGTCC: -0.307
ACTTCCTC: -0.12
ATAACAAC: 0.291
ACCACTTC: -0.0398
ATCAAGGA: 0.149
GATTACTA: 0.206
AGGCGCTG: -0.162
ACTTTTCT: 0.115
AGGATAGG: -0.11
CATAAAGC: 0.122

Sample 3
Target: Interferon regulatory factor 5, full length, phosphomimetic (IRF5, Homo sapiens, UniProt Q13568-2, residues 1-514, K96S/S451D/S453D/S456D/S462D)
Technique: protein-binding microarray
Form: double-stranded DNA, one strand shown
Sample: in vitro
Tested at: 250 nM
Setting: 60-bp whole probe
With: salmon DNA 0.4 mg/ml
Relative to: random background probes
Reading: higher = stronger binding
Quantity: log fluorescence
Constant ends, left off below: GCCTAGCAC … GTCTTGATTCGCTTGACGCTGCTG
GACGATCTCGGTATCGAGACGTGCTAG: 1.17 z-score
GACGGTCGCGGACTGGGGACGTGCTAG: -0.659 z-score
ACCCTGCCTAAAGCTAGTTTGTGCTAG: -0.543 z-score
TTTGGTTTCGGACTGGGTTAGTGCTAG: 7.91 z-score
GACGATCTCAGTTTTGAGACGTGCTAG: 0.111 z-score
TTAGAACTGAGGTTCGATTAGTGCTAG: 0.0725 z-score
TTAGAATTCGGGACTGGATTAGTGCTA: 0.0956 z-score
ATGAGACTGTCACATCCCTGGTGCTAG: -0.271 z-score
CCAGGGACAAAGCGGTGCGAGTGCTAG: -0.769 z-score
TTAGATATCGGGTATCAATTAGTGCTA: 3.14 z-score
GACAGTATCGACTATCGGGACGTGCTA: 6.09 z-score
TTAGGTTTCGGGGATCGGTTAGTGCTA: 6.46 z-score

Sample 4
Target: CCND1, cyclin fold, Cln2 fusion (human)
Technique: yeast growth competition, sequencing
Sample: yeast
Setting: weak parent motif
Relative to: not given
Reading: higher = stronger binding
Quantity: normalised enrichment score
Parent: PLK5 docking peptide (human); IFRKVGQRLLTQC
IFRKAGQRLLTQC [V5A]: 0.28
IFRKVAQRLLTQC [G6A]: 0.337
IFRKVGQRLLTQA [C13A]: 0.785
IFRKVGQRLLTAC [Q12A]: 0.392
IFRKVGARLLTQC [Q7A]: 0.474
IARKVGQRLLTQC [F2A]: 0.464
